Assay results of several laboratories.
Each line is one published result; not all experiments were run side by side.
Cell line: HepG2

Substance	test	test system	setting	quantity	result
COc1ccc2nccc(CC[C@H]3OC[C@H](NC(=O)c4ccc(C(C)(C)C)cc4)CO3)c2c1	cytotoxicity		24 h	IC50	1.31 mg/L
c1cc2nc(c1)-c1cccc(n1)CCCc1ccc(cc1)OCCCCCCOc1ccc(cc1)CCC2	cell growth or viability, MTT		100 µM, 24 h	viability	83.7%
COc1ccc2ncc(F)c(C[C@H](O)[C@H]3OC[C@H](NCc4ccc5c(c4)OCCO5)CO3)c2c1	cytotoxicity		24 h	IC50	63 mg/L
CC[C@H](C)[C@@H](C(=O)N[C@@H](Cc1ccc(O)cc1)C(=O)N1CCC[C@H]1C(=O)N[C@@H](Cc1ccccc1)C(=O)O)n1cc(C(Cc2ccc(O)cc2)NC(=O)[C@@H](NC(=O)[C@H](CCCNC(=N)N)NC(=O)[C@@H](N)CC(=O)O)C(C)C)nn1 (stereo partly drawn)	cell growth or viability, MTT		25 µM, 24 h	viability	82.8%
C[N+](C)(CF)CCO	cell viability	glucose medium	24 h, mitochondrial toxicity	IC50	> 150 µM
C[C@@H]1C(=O)O[C@@H](C)/C=C/C=C\[C@@H](C)[C@@H]2C=C[C@@H]3C[C@@]4(C)O[C@H]4[C@@H](C)[C@H]3[C@@H]2C(=O)C(Cl)(Cl)C1=O	cell growth or viability, MTT		5 days	IC50	> 0.93 mg/L
CCCCCCCC[C@@H]1NC(=O)[C@@H](Cc2ccccc2)NC(=O)[C@H](CCN)NC(=O)[C@@H](NC(=O)[C@H](CCN)NC(=O)[C@@H](NC(=O)[C@H](CCN)NC(=O)CCCCCCC)[C@@H](C)O)CCNC(=O)[C@H]([C@@H](C)O)NC(=O)[C@H](CCN)NC(=O)[C@H](CCN)NC1=O	cell growth or viability, MTT		48 h	IC50	~1280 mg/L
COc1ccc2c(c1)c1c(n2CO)CN2CCc3cc(OC)c(OCc4ccccc4)cc3C2C1 (stereo not drawn)	cell growth or viability		20 µM, 24 h	viability	107%
COc1ccc2ncc(F)c(C[C@H](O)[C@H]3OC[C@H](NCc4ccc5c(n4)NC(=O)CO5)CO3)c2c1	cytotoxicity		24 h	IC50	> 128 mg/L
colistin	cytotoxicity, MTT		48 h	IC50	> 1280 mg/L
COc1ccc2ncc(F)c(C(O)C[C@H]3OC[C@H](NCc4ccc5c(c4)OCCO5)CO3)c2c1 (stereo partly drawn)	cytotoxicity		24 h	IC50	> 128 mg/L
O=C1C(=O)c2[nH]cc3c2C(=C1I)NCC3	cell growth or viability, MTT		72 h	CC50	40 µM

Excerpt of the above:
Substance	test	test system	setting	quantity	result
COc1ccc2ncc(F)c(C[C@H](O)[C@H]3OC[C@H](NCc4ccc5c(n4)NC(=O)CO5)CO3)c2c1	cytotoxicity		24 h	IC50	> 128 mg/L
colistin	cytotoxicity, MTT		48 h	IC50	> 1280 mg/L
